Assay results gathered from unrelated publications.
Protocols differ between the studies behind these lines.
Cell line: L02
Observed: cell growth or viability

| Compound | method | time | IC50 [µM] |
| --- | --- | --- | --- |
| COc1cc(/C=C/C(=O)OCCCC[P+](c2ccccc2)(c2ccccc2)c2ccccc2)ccc1O | SRB | 48 h | 50.7 |
| COc1ccc2nc(Cl)c(-c3nc4cc(Cl)ccc4[nH]3)cc2c1 | MTT | 48 h | > 100 |
| O=C(/C=C/c1ccc(O)cc1)OCCCC[P+](c1ccccc1)(c1ccccc1)c1ccccc1 | SRB | 48 h | 80.6 |
| COc1ccc(-c2nnc(-c3ccccn3)[nH]2)cc1OC.COc1ccc(-c2nnc(-c3ccccn3)[nH]2)cc1OC.[Cu+2].[O-][Cl+3]([O-])([O-])[O-].[O-][Cl+3]([O-])([O-])[O-] | MTT | 24 h | 94.2 |
| C=C(C)[C@@H]1CC[C@]2(C(=O)OCO/N=[N+](\[O-])N3CCCC3)CC[C@]3(C)[C@H](CC[C@@H]4[C@@]5(C)CC[C@H](OC(C)=O)C(C)(C)[C@@H]5CC[C@]43C)[C@@H]12 | MTT | 72 h | 27.2 |
| COc1cc([C@@H]2c3cc4c(cc3[C@H](OC(=O)CCCc3ccc(NS(=O)(=O)c5ccccc5Br)cc3)[C@H]3COC(=O)[C@H]23)OCO4)cc(OC)c1OC | CCK-8 | 24 h | > 100 |
| O=C(/C=C/c1ccc(O)c(O)c1)OCCCC[P+](c1ccccc1)(c1ccccc1)c1ccccc1 | SRB | 48 h | 66.8 |
| Cc1ccc2nc(Cl)c(-c3nc4cc(Cl)ccc4[nH]3)cc2c1 | MTT | 48 h | > 100 |
| COc1cc(/C=C/C(=O)NCCCCCCNC2=C3C[C@@H](C)C[C@H](OC)[C@H](O)[C@@H](C)/C=C(\C)[C@H](OC(N)=O)[C@@H](OC)/C=C\C=C(/C)C(=O)NC(=CC2=O)C3=O)ccc1O | MTT | 72 h | 5.36 |
| COc1ccc2nc(Cl)c(-c3nc4cc(C)c(C)cc4[nH]3)cc2c1 | MTT | 48 h | > 100 |
| COc1cc2c(cc1C(C)(C)O)CCC1C(C)(C)c3nc(C)ncc3C[C@]21C (mixture of isomers) | SRB | 24 h | > 200 |
| Clc1ccc2[nH]c(-c3cc4ccccc4nc3Cl)nc2c1 | MTT | 48 h | > 100 |
| COc1ccc(CN2C(=O)C(=O)c3cc(NC(C)=O)ccc32)cc1 | MTT | 48 h | 5.12 |
| Clc1ccc2[nH]c(-c3cc4cc5c(cc4nc3Cl)OCO5)nc2c1 | MTT | 48 h | > 100 |
| [Cl][Cu][Cl].c1ccc(-c2nnc(-c3ccc4c(c3)OCO4)[nH]2)nc1 | MTT | 24 h | 5.54 |

Repeated from above:
| Compound | method | time | IC50 [µM] |
| --- | --- | --- | --- |
| Clc1ccc2[nH]c(-c3cc4ccccc4nc3Cl)nc2c1 | MTT | 48 h | > 100 |
